Measurements gathered from unrelated publications.
Parts stem from different laboratories: compare values within a part only. Changes are numbered by the printed parent chain.

Series 1
Target: Phosphate system positive regulatory protein PHO4, full length, GST-tagged (PHO4, Saccharomyces cerevisiae, UniProt P07270, residues 1-312)
Method: competition protein-binding microarray
Form: double-stranded DNA, one strand shown
Matrix: in vitro
Tested at: 2 µM
Setting: whole 60-bp probe, lowest competitor level
Added: Cbf1 competitor, 0.05 µM
Reading: higher = stronger binding
Residues (chain): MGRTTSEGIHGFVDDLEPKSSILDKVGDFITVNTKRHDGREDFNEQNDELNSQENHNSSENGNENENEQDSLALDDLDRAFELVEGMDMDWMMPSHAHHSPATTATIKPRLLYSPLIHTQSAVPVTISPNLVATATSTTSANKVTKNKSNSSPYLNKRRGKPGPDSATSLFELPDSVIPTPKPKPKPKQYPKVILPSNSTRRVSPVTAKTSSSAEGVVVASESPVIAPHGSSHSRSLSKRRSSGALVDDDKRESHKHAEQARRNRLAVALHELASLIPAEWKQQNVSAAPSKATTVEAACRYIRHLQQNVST
For `CTAACGAAGGTTTGTCACCGCACTTACAAGCCAAGTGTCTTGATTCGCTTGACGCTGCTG`, the fluorescence intensity was 3730 a.u.
`CTCGTTCAGACGAGTCACGTCGGTAGCCAGACCGGTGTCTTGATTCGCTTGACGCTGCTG` has a fluorescence intensity of 4090 a.u.
`CACGACTTGGCTACTCATTCTTTGTGAAACCTTAGAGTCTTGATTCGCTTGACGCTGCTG` gave a fluorescence intensity of 3430 a.u.
With `CTGGCCCACTTCATGGGCGTGCTAATCAAGAAGTACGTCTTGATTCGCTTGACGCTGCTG` the fluorescence intensity was 7940 a.u.
The fluorescence intensity of `TTGTAAGGTGCAATGCACATGAGTGATTGTTAAAAAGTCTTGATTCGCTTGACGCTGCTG` is reported as 7220 a.u.
`CGGGGTTAAGTTTGCTGTGTGGGTGGCTTGCAGCAGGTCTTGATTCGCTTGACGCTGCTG` has a fluorescence intensity of 5380 a.u.
For `CGCTGCCGTTCATGATACGTGTCCTCAGGACGTCTGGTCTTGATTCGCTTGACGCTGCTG`, the fluorescence intensity was 4890 a.u.

Series 2
Target: RNA binding protein fox-1 homolog 2, RRM domain, GST-SBP tag (RBFOX2, Homo sapiens, UniProt O43251-10, residues 100-194)
Method: RNA Bind-n-Seq
Form: RNA
Matrix: in vitro
Tested at: 365 nM
Setting: natural RNA segment, single round, ends assumed
Reference: no-protein control
Reading: higher = stronger binding
Residues (chain): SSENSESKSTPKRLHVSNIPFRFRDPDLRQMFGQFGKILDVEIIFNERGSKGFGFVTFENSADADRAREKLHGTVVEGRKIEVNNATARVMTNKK
For `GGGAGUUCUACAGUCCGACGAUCGGACCCAAACCAGCGCCUCACUCUAGGGUAGCCCAGGGCGCAGGUGCCAGGUCUGCCUAGCGUUUACCACUGUUGUUAAGCCACAGCCCUUGGCCACCACAUGGCCAUCCUGGAAUUCUCGGGUGCCAA`, “RBNS enrichment (R)” read 0.208.
Under “RBNS enrichment (R)”, `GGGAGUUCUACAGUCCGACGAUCUGCUCUUAUUUUUCCAACAGCUAAACUACUCUUAGUUGAACAGUGUGCCCUAGCUUUUCUUGCAACCAGAGUAUUUUUGUACAGAUUUGCUUUCUCUUACAAAAAGAAAAUGGAAUUCUCGGGUGCCAA` is recorded as 3.14.
For `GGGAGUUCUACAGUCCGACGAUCGUAAAUGUUUUUUGGAGCUAGAUUAGCUGCCUGCCAACCUUAGAACUGCAAAGCCAUUCCUGACCUGUAAACCUCAGCUCUCCAUCUCUAUAAGAGGUAUAGCCUGGGCUUGGAAUUCUCGGGUGCCAA`, “RBNS enrichment (R)” read 1.78.
Under “RBNS enrichment (R)”, `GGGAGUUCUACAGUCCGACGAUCCUUUUGAACAAUUUUAAUUUUUUGCCUCAUAAAUUUUGUGAAUGCUAUUCAUUAUAGGGCUUGUAUAUAUAAUCUAAAAUGUCAGCAAGGCAUCGGAGAUGGGUUAACAUUGGAAUUCUCGGGUGCCAA` is recorded as 1.31.
Under “RBNS enrichment (R)”, `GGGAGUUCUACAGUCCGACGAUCCCAACCAACUUAAGAUUCCAUAAGUAGAACAAGCUAGAUCCUAACCUGAAAUAGCCAUGAGCAAAGCCCACUGCCUUUACAGUCAGGCAGUUGUGCCCAGACCUUCAUGAUGGAAUUCUCGGGUGCCAA` is recorded as 0.387.
For `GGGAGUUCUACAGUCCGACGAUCAGAUACAUCCUGAUCUACAGGCGUGAGAGACACAGAGAGAGAUAGACACUGGGCCUUAUAUGCUCUUUUAAAACUUCAAGGUCCACCCCCAGUAAUGCACUUCCUUCAAAUGGAAUUCUCGGGUGCCAA`, “RBNS enrichment (R)” read 0.719.
`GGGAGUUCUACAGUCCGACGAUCGAAGAGAAGCGUGUUAGCCCAUUUGAGGUCUGGGGAAUCAUGUAAAGGGUACCCAGACCUCACUUUUAGUUAUUUACAUCAAUGAGUUCUUUCAGGGAACCAAACCCAGAUGGAAUUCUCGGGUGCCAA`: “RBNS enrichment (R)” 0.288.

Series 3
Target: CCND3, cyclin fold, Cln2 fusion (human)
Method: yeast growth competition, sequencing
Matrix: yeast
Setting: weak parent motif
Reference: not given
Reading: higher = stronger binding
Starting sequence: PKN2 docking peptide (human); VSAVQKLDFSDTM
For `A3E`, “normalised enrichment score” read 0.0381.
`L7R`: “normalised enrichment score” 0.139.
`D8K`: “normalised enrichment score” 0.167.
`D11Y`: “normalised enrichment score” 0.0675.
`K6N` — result for “normalised enrichment score”: 0.168.
`V1P` — result for “normalised enrichment score”: 0.15.

Single results of other studies
`PhoQ, residues 284 288 289 292 302 303 TSTLRA` gave a fold induction of 3.34 (PhoP, residues 12 14 15 18 19 LWHVM (Escherichia coli, UniProt P23836); Sort-seq, refers to: YFP reporter; E. coli; PhoQ-PhoP variant library, added: 10 µM Mg2+; reference: high Mg2+ state, higher = stronger signaling).

Some of these lines once more (series 3):
`L7R`: “normalised enrichment score” 0.139.
For `A3E`, “normalised enrichment score” read 0.0381.
`D11Y`: “normalised enrichment score” 0.0675.
